Experimental data of several laboratories.
Each line is one published result; not all experiments were run side by side.
ADORA2A: Adenosine receptor A2a (ADORA2A, Homo sapiens, UniProt P29274)

| Compound | target | read-out | action | method | setting | endpoint | result |
| --- | --- | --- | --- | --- | --- | --- | --- |
| NC(=O)CNC(=O)[C@H]1O[C@@H](n2cnc3c(N)ncnc32)[C@H](O)[C@@H]1O | ADORA2A | ligand displacement |  | radioligand | cell membranes | Ki | 940 nM |
| Nc1ncnc2[nH]c(/C=C/C3CCCCC3)nc12 | ADORA2A | cAMP |  | ELISA |  | IC50 | > 411000 nM |
| CCNC(=O)C1OC(n2cnc3c(NCC(c4ccccc4)c4ccccc4)nc(NCCNC(=O)Nc4cc[n+](C)cc4)nc32)C(O)C1O (stereo not drawn) | ADORA2A | cAMP | agonist | luciferase |  | EC50 | 0.129 nM |
| N#Cc1c(N)nc(SCc2ncc[nH]2)c(C#N)c1-c1ccc(O)cc1 | Adenosine receptor A2a, Δ40 C-terminal truncation (ADORA2A, Homo sapiens, UniProt P29274) | binding |  |  |  | IC50 | 166 nM |
| CCNC(=O)C1OC(n2cnc3c(N)nc(C(=O)NCCNC(=O)NC4CCN(c5ccccn5)CC4)nc32)C(O)C1O (stereo not drawn) | ADORA2A | cAMP | agonist | luciferase |  | EC50 | 2000 nM |
| Nc1nc(SCCc2ccc(S(=O)(=O)O)cc2)nc2c1ncn2C1OC(CO)C(O)C1O (stereo not drawn) | ADORA2A | phosphorylation in cells | agonist | AlphaScreen |  | EC50 | 3.16 nM |
| CCNC(=O)C1OC(n2cnc3c(NCC(c4ccccc4)c4ccccc4)nc(NCCc4ccc(CC[N+](C)(C)C)cc4)nc32)C(O)C1O (stereo not drawn) | ADORA2A | cAMP | agonist | luciferase |  | EC50 | 1230 nM |
| CN(C)c1ccc(/C=C/c2nc3c(N)ncnc3[nH]2)cc1 | ADORA2A | cAMP |  | ELISA |  | IC50 | > 357000 nM |
| N#Cc1c(N)nc(SCc2ncc[nH]2)c(C#N)c1-c1cccc(F)c1 | ADORA2A | ligand displacement |  | radioligand | cell membranes | Ki | 43 nM |
| Nc1ncnc2c1ncn2[C@@H]1O[C@H](C(=O)NCC(F)F)[C@@H](O)[C@H]1O | ADORA2A | ligand displacement |  | radioligand | cell membranes | Ki | 90 nM |
| Cc1ccccc1Nc1ncnc2[nH]c(/C=C/c3ccccc3)nc12 | ADORA2A | cAMP |  | ELISA |  | IC50 | 19900 nM |
| CCNC(=O)C1OC(n2cnc3c(NCC(c4ccccc4)c4ccccc4)nc(NCCc4ccc(CCN)cc4)nc32)C(O)C1O (stereo not drawn) | ADORA2A | cAMP | agonist | luciferase |  | EC50 | 182 nM |
| COc1ccccc1Nc1ncnc2[nH]c(/C=C/c3ccc(OC)c(OC)c3)nc12 | ADORA2A | cAMP |  | ELISA |  | IC50 | > 248000 nM |
| Nc1ncnc2c1ncn2[C@@H]1O[C@H](C(=O)NCCCF)[C@@H](O)[C@H]1O | ADORA2A | ligand displacement |  | radioligand | cell membranes | Ki | 690 nM |
| Nc1ncnc2[nH]c(/C=C/c3ccsc3)nc12 | ADORA2A | cAMP |  | ELISA |  | IC50 | > 411000 nM |
| CCNC(=O)C1OC(n2cnc3c(N)nc(NCCNC(=O)Nc4ccncc4)nc32)C(O)C1O (stereo not drawn) | ADORA2A | cAMP | agonist | luciferase |  | EC50 | 29.5 nM |
| Cc1ccc(/C=C/c2nc3c(N)ncnc3[nH]2)cc1 | ADORA2A | cAMP |  | ELISA |  | IC50 | > 398000 nM |
| COc1ccc(-c2nc(CSc3nc(N)c(C#N)c(-c4ccccc4)c3C#N)cs2)cc1 | ADORA2A | ligand displacement |  | radioligand | cell membranes | Ki | 175 nM |
